Measurements from different studies.
Every numbered part comes from another study and shows a few of its results, in no order. Substitutions count along the parent as printed.

Set 1 — target: JUNB, bZIP domain (human); technique: DHFR protein complementation; sample: yeast; relative to: wild-type JUN-FOS pair; direction: higher = stronger binding; measurement: binding fitness
Notes: single substitutions, most at no-binding floor
Parent: JUN, bZIP domain (human); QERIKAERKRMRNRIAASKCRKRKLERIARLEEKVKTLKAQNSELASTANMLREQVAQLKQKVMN; partner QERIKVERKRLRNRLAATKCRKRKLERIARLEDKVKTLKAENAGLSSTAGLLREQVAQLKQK
E54P: -1.52 natural log
E32T: -1.29 natural log
K36H: -1.38 natural log
K36G: -1.34 natural log
N42A: -1.44 natural log
E44D: -1.35 natural log
A40T: -1.18 natural log
M51H: -1.34 natural log
K36A: -1.04 natural log
L38P: -1.51 natural log
A29R: -1.01 natural log
Q55W: -1.54 natural log
K36D: -1.35 natural log
E33V: -1.33 natural log
L38H: -1.45 natural log
E44K: -1.2 natural log
Q41H: -1.26 natural log
E32P: -1.51 natural log
L38N: -1.52 natural log
M51D: -0.906 natural log
E32D: -1.44 natural log
L45E: -1.63 natural log
R30L: -0.924 natural log
K36Q: -1.19 natural log
A40E: -1.13 natural log

Set 2 — target: CCNE2, cyclin fold, Cln2 fusion (human); technique: yeast growth competition, sequencing; sample: yeast; notes: strong parent motif; relative to: not given; direction: higher = stronger binding; measurement: normalised enrichment score
Parent: RBL2 docking peptide (human); STTRRRLFVENDS; partner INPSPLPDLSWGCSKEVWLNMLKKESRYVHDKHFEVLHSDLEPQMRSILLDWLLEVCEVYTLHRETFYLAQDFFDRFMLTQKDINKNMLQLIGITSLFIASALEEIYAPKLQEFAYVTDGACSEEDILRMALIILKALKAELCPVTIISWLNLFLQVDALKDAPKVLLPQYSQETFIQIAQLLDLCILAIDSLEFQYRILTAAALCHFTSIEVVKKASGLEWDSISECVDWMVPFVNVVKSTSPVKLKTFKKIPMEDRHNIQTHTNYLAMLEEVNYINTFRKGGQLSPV
T2G: 5.2
L7K: 0.194
S1R: 4.71
T2S: 4.68
S1I: 3.85
S13W: 5.02
F8C: -0.202
F8A: -0.499
D12L: 2.32
D12H: 3.86
L7I: 0.963
S13D: 4.99
E10K: 1.82
N11A: 3.69
N11C: 4.35
E10S: 2.58
N11T: 4.28
T3M: 1.4
R4K: 3.26
T3P: 3.05
F8R: 0.00145
R6N: -0.0546
R4Y: 1.34

Set 3 — technique: protein binding microarray; molecule type: double-stranded DNA, one strand shown; sample: in vitro; tested at: not given; relative to: not given; direction: higher = stronger binding; measurement: E-score
Target: Histone acetyltransferase KAT6A, both winged helices, GST fusion (KAT6A, Homo sapiens, UniProt Q92794, residues 1-181)
Notes: 8-mer, flanks averaged, mean of 2 arrays, mostly near background
Construct (chain): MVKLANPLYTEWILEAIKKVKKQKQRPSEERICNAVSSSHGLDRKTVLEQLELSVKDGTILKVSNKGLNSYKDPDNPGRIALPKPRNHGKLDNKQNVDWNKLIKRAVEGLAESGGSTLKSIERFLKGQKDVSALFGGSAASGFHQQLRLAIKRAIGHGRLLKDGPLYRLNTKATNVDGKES
CGACTCTA: -0.0627
GACTCTGA: -0.102
AGCCGACC: 0.195
AATTTTGC: 0.024
ACCCAGCG: 0.118
AGTGACAC: 0.0461
AACCGTGT: 0.0484
GCACGAGA: 0.0354
AATTAAAC: -0.0859
TAGAGGCA: -0.162
CTAACCGC: 0.162
ATCTCTCC: -0.054
CGGGCGTC: 0.281
AGAGTACG: 0.0369
CCGTCTAA: 0.195
ACGACCCA: -0.221
CGGCTGAC: 0.178
CGCCCCCC: 0.0322
GACGAGTC: -0.065
AGACGTCC: -0.0563
AAGGGAGC: -0.168
AGAATGGC: -0.166
AAACCTTG: -0.203
AGAGTCCG: 0.0807
CATCGTTC: -0.0666

Set 4 — technique: protein-binding microarray; molecule type: hairpin DNA; sample: in vitro; tested at: not given; relative to: not given; direction: higher = stronger binding; measurement: median fluorescence
Target: Krueppel-like factor 3, full length (KLF3, Homo sapiens, UniProt P57682, residues 1-345)
UniProt P57682, sequence (whole entry, looked up): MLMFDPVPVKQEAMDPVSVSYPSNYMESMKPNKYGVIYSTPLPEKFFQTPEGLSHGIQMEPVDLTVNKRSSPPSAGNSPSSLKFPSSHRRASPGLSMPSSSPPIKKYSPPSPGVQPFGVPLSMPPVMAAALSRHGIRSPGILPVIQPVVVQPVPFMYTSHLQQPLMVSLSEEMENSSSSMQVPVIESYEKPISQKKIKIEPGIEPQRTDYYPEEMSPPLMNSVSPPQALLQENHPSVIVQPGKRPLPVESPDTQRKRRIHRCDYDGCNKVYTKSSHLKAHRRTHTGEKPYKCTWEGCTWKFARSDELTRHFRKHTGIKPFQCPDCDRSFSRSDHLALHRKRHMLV
Notes: whole hairpin DNA, median over replicate spots
GAGGCCCGCCACGCCCAGCCTCCTGGCTGGGCGTGGCGGGCCTCACACTC (5mC at 7): 9080 a.u.
GAGGCCGACCGCGCCCAGCCTCCTGGCTGGGCGCGGTCGGCCTCACACTC (5mC at 10 12 32): 8530 a.u.
GAGGCCGACCACGCCCCGCCTCCTGGCGGGGCGTGGTCGGCCTCACACTC: 11100 a.u.
GAGGCCGACCGCGCCGAGCCTCCTGGCTCGGCGCGGTCGGCCTCACACTC (5mC at 15 29): 8380 a.u.
GAGGCCCGCCACGCCCAGCCTCCTGGCTGGGCGTGGCGGGCCTCACACTC (5mC at 37): 9290 a.u.
GAGGCCGACCGCGCGCAGCCTCCTGGCTGCGCGCGGTCGGCCTCACACTC (5mC at 30): 9210 a.u.
GAGGCCGACCGCGCCCAGCCTCCTGGCTGGGCGCGGTCGGCCTCACACTC (5mC at 16): 9010 a.u.
GAGGCCCGCCACGCCCAGCCTCCTGGCTGGGCGTGGCGGGCCTCACACTC (5mC at 7 37): 9000 a.u.
GAGGCCGACCACGCCCAGCCTCCTGGCTGGGCGTGGTCGGCCTCACACTC (5mC at 14): 9160 a.u.

Set 5 — technique: RNA Bind-n-Seq; molecule type: RNA; sample: in vitro; tested at: 200 nM; notes: whole 134-nt RNA, ends assumed; with: 150 mM LiCl; relative to: input library; direction: higher = stronger binding; measurement: log2 enrichment; library: 7-deaza-guanosine replaces G
Target: Ras GTPase-activating protein-binding protein 1, full length (G3BP1, Homo sapiens, UniProt Q13283)
UniProt Q13283, sequence (whole entry, looked up): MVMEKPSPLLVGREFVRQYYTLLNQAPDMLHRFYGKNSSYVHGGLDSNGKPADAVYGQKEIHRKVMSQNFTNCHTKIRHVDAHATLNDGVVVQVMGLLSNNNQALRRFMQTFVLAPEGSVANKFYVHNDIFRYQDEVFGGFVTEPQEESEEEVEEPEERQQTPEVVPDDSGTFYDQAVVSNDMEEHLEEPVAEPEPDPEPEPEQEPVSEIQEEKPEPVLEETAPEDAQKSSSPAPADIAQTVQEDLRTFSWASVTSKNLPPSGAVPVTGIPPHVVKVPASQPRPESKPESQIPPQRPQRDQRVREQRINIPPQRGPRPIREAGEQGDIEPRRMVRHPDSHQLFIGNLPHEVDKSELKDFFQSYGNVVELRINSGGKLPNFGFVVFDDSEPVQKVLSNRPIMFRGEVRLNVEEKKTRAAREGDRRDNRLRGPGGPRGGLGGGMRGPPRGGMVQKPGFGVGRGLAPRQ
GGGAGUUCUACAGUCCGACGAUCUCCUGUGCUACACAUCGUAUGUACCGAAUCGGAAAAAAAGGAAAAAAAGGAAAAAAAGGAAAGUAUUAUGUUACGCCGUUCGGAUCUGCAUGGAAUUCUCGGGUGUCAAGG: -0.561
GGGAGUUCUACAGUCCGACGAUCCAAGUCCUGUGCUACACAUCGUAUGUACCGAAUCGGGUUUUUGGGUGGGUUUGGGAAAGUAUUAUGUUACGCCGUUCGGAUCUGCACUUCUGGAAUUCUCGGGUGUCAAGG: -0.526
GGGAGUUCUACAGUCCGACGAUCGUCCUGUGCUACACAUCGUAUGUACCGAAUCGGGUUUGGGAAAAAGGGUUUUUUUGGGAAAGUAUUAUGUUACGCCGUUCGGAUCUGCACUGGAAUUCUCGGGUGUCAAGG: -1.16
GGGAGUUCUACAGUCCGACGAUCUAUGCCACGCCCUUUGAGGACUCGAAGAUCAUGGUCUCUGACUUUGGACUCUCCAAAAUCCAGGCUGGGAACAUGCUAGGCACCGCCUGUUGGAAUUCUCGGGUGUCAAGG: 0.235
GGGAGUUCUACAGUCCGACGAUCAGUCCUGUGCUACACAUCGUAUGUACCGAAUCGGGGUGGGGUUUUUGGGGAAAGGGGAAAGUAUUAUGUUACGCCGUUCGGAUCUGCACUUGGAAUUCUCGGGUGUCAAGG: 0.424
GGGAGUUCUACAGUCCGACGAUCUCAAGUCCUGUGCUACACAUCGUAUGUACCGAAUCGGUGGAAAAAAAGGAAAGGAAAGUAUUAUGUUACGCCGUUCGGAUCUGCACUUCCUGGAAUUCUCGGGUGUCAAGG: -1.05
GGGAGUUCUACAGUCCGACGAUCACCAUGCAGGUGGGCAUCUUUGGGAAGUGGGACAAGGGGGGGAUAGGGAGGGGGGUAACACUUUGGGAACAGGUGGUCCCAGGUCGUUUCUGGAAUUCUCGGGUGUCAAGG: 0.562
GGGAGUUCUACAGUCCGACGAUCUGGGAGGUGGAUUUUGUUUAUUUUUUUAGCUCAUUUCCAGGGGUGGGAAUUUUUUCUUAAUAUGUGUCAUGAAUAAAGUUGUUUUUGAAAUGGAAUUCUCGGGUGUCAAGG: -0.731

For quick reference, copied from above (set 3):
AGACGTCC: -0.0563
AGCCGACC: 0.195
ACGACCCA: -0.221
AGAATGGC: -0.166
CTAACCGC: 0.162
GACTCTGA: -0.102
TAGAGGCA: -0.162
AAACCTTG: -0.203
